Measurements collected from several papers.
Numbered parts are unrelated; each lists some results of a single study.

Block 1 — method: protein-binding microarray; form: double-stranded DNA, one strand shown; sample: in vitro; concentration: 250 nM; notes: 60-bp whole probe; with: salmon DNA 0.4 mg/ml; reference: random background probes; direction: higher = stronger binding; all sequences stand within: GCCTAGCAC … GTCTTGATTCGCTTGACGCTGCTG
Target: Interferon regulatory factor 7, full length, phosphomimetic (IRF7, Homo sapiens, UniProt Q92985, residues 1-503, S101K/S471D/S472D/S475D/S476D/S477D/S483D/S484D/S487D)
UniProt Q92985, sequence (whole entry, unmodified, looked up): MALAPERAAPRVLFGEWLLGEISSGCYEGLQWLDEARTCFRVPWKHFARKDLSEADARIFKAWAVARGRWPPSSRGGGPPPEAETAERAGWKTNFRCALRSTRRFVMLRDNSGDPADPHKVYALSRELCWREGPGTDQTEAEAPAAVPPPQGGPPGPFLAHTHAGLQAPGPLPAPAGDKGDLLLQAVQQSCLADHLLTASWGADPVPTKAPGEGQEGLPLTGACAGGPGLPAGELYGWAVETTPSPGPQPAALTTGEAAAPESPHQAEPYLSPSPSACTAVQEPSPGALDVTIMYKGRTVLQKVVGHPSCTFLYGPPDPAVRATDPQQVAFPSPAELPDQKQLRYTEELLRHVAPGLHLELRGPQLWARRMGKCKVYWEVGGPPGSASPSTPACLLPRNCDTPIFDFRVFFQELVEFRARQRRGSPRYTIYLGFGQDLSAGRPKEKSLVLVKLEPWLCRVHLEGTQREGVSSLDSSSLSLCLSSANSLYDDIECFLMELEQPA
Oligonucleotide | log fluorescence [z-score]
GACGAACTAAGTCTCGAGACGTGCTAG | 0.556
TTAGGTCTCCTACTGCTTTGGTGCTAG | 0.0339
GACGATATCGCGTTTCGAGACGTGCTA | 0.795
GACGGTATCGGTTTCGAGACGTGCTAG | 7.15
GACGGTATCGGTATCAGGACGTGCTAG | 1.2
CGAGTTTTCTCTCCCATTCTGTGCTAG | 1.39
TTAGATATCAGTCTCGATTCGTGCTAG | 5.12

Block 2 — method: RNA Bind-n-Seq; form: RNA; sample: in vitro; concentration: not given; reference: input RNA pool; direction: higher = stronger binding
Target: RING finger protein unkempt homolog, zinc fingers 1-6, GST-SBP tag (UNK, Homo sapiens, UniProt Q9C0B0, residues 30-357)
Notes: RNA with constant flanks, human and mouse sites, ends assumed
Target sequence (chain): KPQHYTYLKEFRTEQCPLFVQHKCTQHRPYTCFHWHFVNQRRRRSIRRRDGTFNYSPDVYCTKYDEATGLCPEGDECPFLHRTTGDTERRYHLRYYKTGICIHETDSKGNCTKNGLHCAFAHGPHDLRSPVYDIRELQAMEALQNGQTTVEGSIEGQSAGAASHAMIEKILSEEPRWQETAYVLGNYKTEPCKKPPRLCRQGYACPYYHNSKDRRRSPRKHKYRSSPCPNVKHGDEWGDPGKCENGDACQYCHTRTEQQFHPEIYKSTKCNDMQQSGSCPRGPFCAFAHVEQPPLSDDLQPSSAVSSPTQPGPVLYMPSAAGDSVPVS
Oligonucleotide | bound/input enrichment [ratio]
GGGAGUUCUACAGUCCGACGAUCUUCCCGUUUCUAAUCAGGGUUGUUAAACAUGAGCCUGCGGAAGCAAACCCCUAGCGACUUCUUAAAGCAGAUCAUCGGACGGCCAGUUGUGGUGAAAUUAAAUUCUGGCGUGGAUUAUCGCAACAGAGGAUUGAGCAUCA | 0.38
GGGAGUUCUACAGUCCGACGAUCCAUAUUAAAUAUGACCCAGAAAUUAUUGGUCCUAGAGAUAUUAUCCAUACAAUUGAAAGCUUAGGUUUUGAAGCUUCUUUGGUCAAGAAGGAUCGGUCAGCAAGUCACUUAGAUCAUAAACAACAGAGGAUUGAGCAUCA | 3.57
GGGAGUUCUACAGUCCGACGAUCACUUGCCGUGACUGCAGGAUGCUCUCAGCGCGCACUGACGCACUCACAGCCCACUCUGCCAUCCACGGGACCACCUCCAGGGUGUACUCCAGAGACAGGACUCUCAAACCACGUGACCUCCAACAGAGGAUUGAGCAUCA | 0.125
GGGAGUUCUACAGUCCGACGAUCAAACGUCGCUUCAGGAAAUUCCUAGUGUAUGUUGCCAACUUCGAUGAAAAAGAUCCAAGAACUUUUGAAGGCAUUGAUCCUAAGAAGACCACAAUGCGAGAUGUGUAUAAGAAAUUUGAUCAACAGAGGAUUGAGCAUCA | 0.0667
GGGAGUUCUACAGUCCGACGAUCCAACAGCUACUGGAUACUGAUAGCUAUCAAACCUCAAAUUUAAAGAUUUUCCUUCAUGGAAAAGUUACUAUACUUUGCAAGAAACCACUGAACGUUGUCAUUGGAUAUUUUUUCAGCAAACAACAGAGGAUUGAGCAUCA | 0.238
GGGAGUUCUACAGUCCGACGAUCAUUUGCUAUUUUCUAUUAAACAUGUGACAUUAUUAUCUCUUCCUCUAGAGAUGUGAUACCUCAAAGCACAGAGUUCUGGUUGUGUCUGUGUGUCCUCAGUCUCUACCUUAUUUUGCUGCUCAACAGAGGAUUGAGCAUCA | 1.85
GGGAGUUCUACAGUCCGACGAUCUCCACCAAGAGCCUCUUCCUCGGCCAGAAGCUGAACCUUAUUCACAGUGAAAUCAGUAAUUUAGCCGGCUUUGAGGUGGAGGCCAUAAUCAAUCCUACCAAUGCUGACAUUGACCUUAAACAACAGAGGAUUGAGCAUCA | 0.124
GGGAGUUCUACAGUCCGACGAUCAAAAAGCAGCUAAGGUUUUUACAAAGGGGAAAUGAGAACAAAAUGCUAGCUACAUCUGUAUAGCUGAACUUUUAUAUGGUCCUCGCUGUCCUCUCUCUGCUCUGCUGUCCCCAGUGGUCACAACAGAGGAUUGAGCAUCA | 0.244
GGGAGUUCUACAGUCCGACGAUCGCAUGCUUCCAGAAGACUGGCGCCUCGGUGGUUGCGAUUCGAAAGUACAUCAUUCAUAAGUACCCGUCUCUGGGUCUGGAGAGAAGGGGCUAUCUGCUCAAGCAAGCGCUGAAGAGAGAGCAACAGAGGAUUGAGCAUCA | 0.382
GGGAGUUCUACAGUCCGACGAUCAUGUGUGUGUGUGUGUGUGUGUGUGUGUGUGUGAGUGUGUGUGUGUGUGUGUGUGUGUGUGAGUGUGUGUGUGUGUUCUCUACAUGGGGGUGCCAGGGAUUCUGUUCCAUUUUAAAUGGGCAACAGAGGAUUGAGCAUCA | 1.32

Block 3 — method: protein-binding microarray; form: double-stranded DNA, one strand shown; sample: in vitro; concentration: not given; direction: higher = stronger binding
Target: Max-binding protein MNT, bHLH-zipper, MAX partner unstated (MNT, Homo sapiens, UniProt Q99583, residues 220-300)
Notes: k-mer, scored over probes, only values ≥0.25
Residues (chain): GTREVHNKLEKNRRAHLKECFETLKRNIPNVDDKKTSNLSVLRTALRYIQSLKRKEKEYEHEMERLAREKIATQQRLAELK
Oligonucleotide | E-score
ACACGCGA | 0.418
ACGCGCGG | 0.314
CGCGTGCC | 0.419
CATGTCGC | 0.328
CAAACGTG | 0.38
GCCCCGCC | 0.302
AAACGTGC | 0.415
ATCCCCAC | 0.325

Single results of other studies
Molecule | target | test | system | conditions | how to read | quantity | value
PhoQ, residues 284 288 289 292 302 303 GTAMQF | PhoP, residues 12 14 15 18 19 NQGLL (Escherichia coli, UniProt P23836) | Sort-seq, item: YFP reporter | E. coli | PhoQ-PhoP variant library, with: 10 µM Mg2+ | reference: high Mg2+ state, higher = stronger signaling | fold induction | 12.4

Some of these lines once more (block 2):
Oligonucleotide | bound/input enrichment [ratio]
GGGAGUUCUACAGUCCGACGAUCCAACAGCUACUGGAUACUGAUAGCUAUCAAACCUCAAAUUUAAAGAUUUUCCUUCAUGGAAAAGUUACUAUACUUUGCAAGAAACCACUGAACGUUGUCAUUGGAUAUUUUUUCAGCAAACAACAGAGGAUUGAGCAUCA | 0.238
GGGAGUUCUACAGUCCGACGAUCAUUUGCUAUUUUCUAUUAAACAUGUGACAUUAUUAUCUCUUCCUCUAGAGAUGUGAUACCUCAAAGCACAGAGUUCUGGUUGUGUCUGUGUGUCCUCAGUCUCUACCUUAUUUUGCUGCUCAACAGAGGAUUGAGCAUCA | 1.85
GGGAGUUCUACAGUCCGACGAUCUCCACCAAGAGCCUCUUCCUCGGCCAGAAGCUGAACCUUAUUCACAGUGAAAUCAGUAAUUUAGCCGGCUUUGAGGUGGAGGCCAUAAUCAAUCCUACCAAUGCUGACAUUGACCUUAAACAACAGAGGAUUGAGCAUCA | 0.124
